Measured values from different studies.
Numbered parts are unrelated; each lists some results of a single study.

Set 1 — method: protein-binding microarray; molecule type: double-stranded DNA, one strand shown; sample: in vitro; concentration: 2200 nM top; notes: 60-bp whole probe; with: salmon DNA 0.4 mg/ml; reference: random background probes; direction: higher = stronger binding
Target: Interferon regulatory factor 7, full length, phosphomimetic (IRF7, Homo sapiens, UniProt Q92985, residues 1-503, S471D/S472D/S475D/S476D/S477D/S483D/S484D/S487D)
Chain of UniProt Q92985 (whole entry, unmodified, looked up): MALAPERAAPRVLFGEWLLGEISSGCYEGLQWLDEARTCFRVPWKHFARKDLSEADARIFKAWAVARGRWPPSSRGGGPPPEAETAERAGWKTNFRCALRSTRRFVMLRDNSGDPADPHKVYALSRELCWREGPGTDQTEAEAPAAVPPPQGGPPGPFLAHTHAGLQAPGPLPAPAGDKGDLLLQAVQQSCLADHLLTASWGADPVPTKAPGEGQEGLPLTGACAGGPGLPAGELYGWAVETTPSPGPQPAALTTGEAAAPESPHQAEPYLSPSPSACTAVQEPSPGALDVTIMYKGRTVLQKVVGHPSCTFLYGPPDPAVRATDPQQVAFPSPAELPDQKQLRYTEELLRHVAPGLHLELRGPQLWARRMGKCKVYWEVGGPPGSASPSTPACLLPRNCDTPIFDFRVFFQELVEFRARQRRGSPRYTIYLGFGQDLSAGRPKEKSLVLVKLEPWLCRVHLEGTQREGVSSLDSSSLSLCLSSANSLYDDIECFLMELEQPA
For `GCCTAGCACGACGATCTCAGTATCGAGATGTGCTAGGTCTTGATTCGCTTGACGCTGCTG`, “fitted relative affinity” read 0.157 z-score.
Under “fitted relative affinity”, `GCCTAGCACTCACCAATGCTTCTGGTACTGTGCTAGGTCTTGATTCGCTTGACGCTGCTG` is recorded as 0.766 z-score.
`GCCTAGCACGGCTGTTTGGTTCTTATCCTGTGCTAGGTCTTGATTCGCTTGACGCTGCTG` — result for “fitted relative affinity”: 1.01 z-score.
Under “fitted relative affinity”, `GCCTAGCACTTAGGTTTCGGGACAGGGTTAGTGCTAGTCTTGATTCGCTTGACGCTGCTG` is recorded as 3.75 z-score.

Set 2 — method: protein binding microarray; molecule type: double-stranded DNA, one strand shown; sample: in vitro; concentration: not given; reference: not given; direction: higher = stronger binding
Target: Histone acetyltransferase KAT6A, winged helix 1, GST fusion (KAT6A, Homo sapiens, UniProt Q92794, residues 1-85)
Notes: 8-mer, flanks averaged, mean of 2 arrays, mostly near background
Construct (chain): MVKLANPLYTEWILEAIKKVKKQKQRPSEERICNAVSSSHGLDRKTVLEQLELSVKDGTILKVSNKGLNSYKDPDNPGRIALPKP
The E-score of `CGCGGCAG` is reported as 0.413.
The E-score of `GCTAGTCC` is reported as 0.022.
The E-score of `CTAGGGCC` is reported as 0.0179.
With `AAGTCTGG` the E-score was -0.35.

Set 3 — method: aptamer microarray, sandwich; molecule type: DNA with 2'F-ANA; sample: in vitro; concentration: 200 nM; with: Cy3 exosite-II aptamer, 400 nM; direction: higher = stronger binding; strand: GGTTGGTGTGGTTGG
Target: Prothrombin, mature alpha-thrombin (F2, Homo sapiens, UniProt P00734)
Notes: whole 15-mer aptamer, many near background
Under “mean fluorescence intensity”, `2'F-ANA at 1 3 5 8 10 12 14` is recorded as 50 a.u.
`2'F-ANA at 1 6 8 10 12 13 14 15` — result for “mean fluorescence intensity”: 48 a.u.
Under “mean fluorescence intensity”, `2'F-ANA at 1 3 8 10 11 15` is recorded as 83.5 a.u.
`2'F-ANA at 2 4 6 7 11 12 14 15` — result for “mean fluorescence intensity”: 102 a.u.
`2'F-ANA at 2 3 4 5 6 7 8 11 14` — result for “mean fluorescence intensity”: 51 a.u.

Other studies, line by line
With `PhoQ, residues 284 288 289 292 302 303 TNASYF` the fold induction was 3.07 (PhoP, residues 12 14 15 18 19 FWNTL (Escherichia coli, UniProt P23836); Sort-seq, refers to: YFP reporter; E. coli; PhoQ-PhoP variant library, with: 10 µM Mg2+; reference: high Mg2+ state, higher = stronger signaling).

Some of these lines once more (set 1):
For `GCCTAGCACGACGATCTCAGTATCGAGATGTGCTAGGTCTTGATTCGCTTGACGCTGCTG`, “fitted relative affinity” read 0.157 z-score.
Under “fitted relative affinity”, `GCCTAGCACTCACCAATGCTTCTGGTACTGTGCTAGGTCTTGATTCGCTTGACGCTGCTG` is recorded as 0.766 z-score.
